Results of several laboratories.
A part holds a random share of what one study measured. Substitutions count along the parent as printed.

Set 1
Target: CCNE1, cyclin fold, Cln2 fusion (human)
Technique: yeast growth competition, sequencing
Medium: yeast
Setting: weak parent motif
Reference: not given
Direction: higher = stronger binding
Parent: ORC1 docking peptide (human); PRARKRLELGNLG
Variant	normalised enrichment score
PRAHKRLELGNLG [R4H]	0.659
PRARKRLGLGNLG [E8G]	0.137
PRARKTLELGNLG [R6T]	0.264
PRARKRLELGALG [N11A]	-0.211
PRARKRLEPGNLG [L9P]	-0.271
MRARKRLELGNLG [P1M]	0.0314
PRARARAELGNLG [K5A L7A]	0.192
PRARKRLEMGNLG [L9M]	0.491
TRARKRLELGNLG [P1T]	0.0277
PRPRKRLELGNLG [A3P]	0.429
PRARKRLELKNLG [G10K]	-0.491
PRARKRLELLNLG [G10L]	1.04
PRARKRLEQGNLG [L9Q]	0.403
PRARDRLELGNLG [K5D]	0.35
PRARKRLEGGNLG [L9G]	0.34
PRARKRMELGNLG [L7M]	0.346
PRARKRLENGNLG [L9N]	0.284
PRLRKRLELGNLG [A3L]	-0.48
PRARKRLQLGNLG [E8Q]	0.822
PDARKRLELGNLG [R2D]	0.501
PRARKRLELGNLR [G13R]	0.408

Set 2
Target: ABI1, truncated, D143A, DHFR fusion (Arabidopsis thaliana)
Technique: DHFR PCA, deep sequencing
Medium: yeast
Setting: methotrexate growth selection, single substitutions
With: (+)-ABA 2500 µM
Reference: wild-type fitted maximum
Direction: higher = stronger binding
Parent: PYL1, truncated, DHFR fusion (Arabidopsis thaliana); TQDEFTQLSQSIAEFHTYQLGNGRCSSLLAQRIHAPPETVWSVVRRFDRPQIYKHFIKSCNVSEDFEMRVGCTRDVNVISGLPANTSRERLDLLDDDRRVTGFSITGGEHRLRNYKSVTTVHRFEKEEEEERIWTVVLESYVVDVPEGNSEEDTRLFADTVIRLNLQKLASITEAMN; partner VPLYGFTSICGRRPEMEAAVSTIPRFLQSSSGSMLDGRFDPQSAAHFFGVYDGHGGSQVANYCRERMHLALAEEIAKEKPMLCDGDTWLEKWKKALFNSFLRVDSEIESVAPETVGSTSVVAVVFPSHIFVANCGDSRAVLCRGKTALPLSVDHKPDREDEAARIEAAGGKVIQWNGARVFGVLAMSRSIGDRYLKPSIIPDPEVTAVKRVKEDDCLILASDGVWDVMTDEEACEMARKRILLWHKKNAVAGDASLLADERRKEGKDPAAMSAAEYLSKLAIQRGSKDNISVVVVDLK
Variant	relative binding score
Q2E	90.8%
H55L	95.4%
P36Y	94.4%
Q51P	38.5%
V136N	68.2%
T1L	98.4%
L94V	95.7%
G71K	79.9%
N85V	97.7%
C72V	98.6%
P50K	-11.6%
P37Q	86.8%
F124R	96.4%
I33Q	0.198%

Set 3
Target: Fragile X messenger ribonucleoprotein 1, C-terminal low-complexity region (Fmr1, Mus musculus, UniProt P35922)
Technique: RNA Bind-n-Seq
Molecule type: RNA
Medium: in vitro
Tested at: 200 nM
Setting: whole 134-nt RNA, ends assumed
With: 150 mM KCl
Reference: input library
Direction: higher = stronger binding
Constant ends, left off below: GGGAGUUCUACAGUCCGACGAUC … UGGAAUUCUCGGGUGUCAAGG
Sequence	log2 enrichment
AGUCCUGUGCUACACAUCGUAUGUACCGAAUCAAACCCCCAAACCCCCAAACCCAAAAAAGUAUUAUGUUACGCCGUUCGGAUCUGCACU	-0.302
CUCAAGUCCUGUGCUACACAUCGUAUGUACCGAAUCGGGUUGGGUUGGGUUGGGAAAGUAUUAUGUUACGCCGUUCGGAUCUGCACUUCC	1.26
CAAGUCCUGUGCUACACAUCGUAUGUACCGAAUCGGGUUUGGUUUGGGGUUUGGGGAAAGUAUUAUGUUACGCCGUUCGGAUCUGCACUU	0.529
CCUGUGCUACACAUCGUAUGUACCGAAUCGGGGCCCCCCGGGGCCCCCCGGCCCCCCGGGAAAGUAUUAUGUUACGCCGUUCGGAUCUGC	-0.953
UGGGAGGUGGAUUUUGUUUAUUUUUUUAGCUCAUUUCCAGGGGUGGGAAUUUUUUUUUAAUAUGUGUAAUGAAUAAAGUUGUUUUUGAAA	0.145
ACCAUGCAGGAGGGCAUCUUUGGGAAGUGGGGCAAGGGGGGGAUAGGGAGGGGGGUAACACUUUGGGAACAGGUGGUCCCAGGUCGUUUC	0.798
AGUCCUGUGCUACACAUCGUAUGUACCGAAUCAAAUUUUUUUAAACCCAAACCCAAAAAAGUAUUAUGUUACGCCGUUCGGAUCUGCACU	-0.168
CAAGUCCUGUGCUACACAUCGUAUGUACCGAAUCGGGUUUUGGUUUUGGUUUUGGGAAAGUAUUAUGUUACGCCGUUCGGAUCUGCACUU	-0.759
GUCCUGUGCUACACAUCGUAUGUACCGAAUCGGAAAAAGGGAAAAAGGGGAAAAAGGGAAAGUAUUAUGUUACGCCGUUCGGAUCUGCAC	-0.123

Set 4
Target: RNA binding protein fox-1 homolog 2, RRM domain, GST-SBP tag (RBFOX2, Homo sapiens, UniProt O43251-10, residues 100-194)
Technique: RNA Bind-n-Seq
Molecule type: RNA
Medium: in vitro
Tested at: 365 nM
Setting: natural RNA segment, single round, ends assumed
Reference: no-protein control
Direction: higher = stronger binding
Constant ends, left off below: GGGAGUUCUACAGUCCGACGAUC … UGGAAUUCUCGGGUGCCAA
Target sequence (chain): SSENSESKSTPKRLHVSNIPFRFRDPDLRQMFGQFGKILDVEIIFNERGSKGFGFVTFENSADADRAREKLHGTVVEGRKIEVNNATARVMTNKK
Sequence	RBNS enrichment (R)
UGACGACGUCCCCCUUGGGGACAUGUUGUUACCAGAAGAGGAAGUUUUGUUCUCUUUGUUGGUUGUUUUUCCUUAAUCUUUCUCCUUUCUAUCUGAUUUAAGCAAAAGAG	0.486
UUGCAGUAGCAGCAGGGGCUGGGACGGGAUACUUUCUCUUCAGCUGGAAGAAGGCAGUGGUGGUGGACAUCACAGAGCACUGCCAUUGAUAUCAGACUCCACAUAUGGCC	0.287
GAACUGGAGGUGCCUGUGCACACUGGACCCAACAGUCAAAAGACUGCUGACUUGACACGUGACAGUGAAGUAAUGGAAGUGGCCAGAUGUCAGGAAACUGAGAGUAAUGA	0.654
UUCUUAAUUUAUAUUAUAUUUUAAACAACAUAGUAUAUAGCACAGGAAUUUGCAGAAGCCAUUUAAGUUUUUUGAGGUCAGCGCUGAGUUAGCAUUUAUUGUUUUGAUGA	0.732
CUUUUUUAUUGUAAAAAGAGAAUCAACUCAACUGUCAGUACUGAGAAGGGAUUUGGGUGUAGGGGCACCUGGCCUCCGGGAGCCAUUGGGCUGUAGACUGGUGUCGGUAU	1.13
GGAGGACAGAAUUCUCCCAGCGUUAACACAAAAUCCAUGGGCAGUAUGAUGGCAGGUCCUCUGUUGCAAACUCAGUUCCAAAGUCACAGGAAGAAAGCAGAAAGUUCAAC	0.381
GAAUCAACAUAUGGUAGGGAUUACAGUGGGGGCAUUUCUUUAUAUCACCUCUUAAAAACAUUGUUUCCACUUUAAAAGUAAACACUUAAUAAAUUUUUGGAAGAUCUCUG	0.363
UAUAGAAGCUGUAUGUGUAAGGGUGACUUAAAUCAUAUGUCACAUUGUCUAAACUAUUCAGACACUUGGAGAAUAUUCUCCUUGAAUUAAAAAAGAUGAUUAAGAAGGAU	0.398

Repeated from above (set 1):
Variant	normalised enrichment score
TRARKRLELGNLG [P1T]	0.0277
PRPRKRLELGNLG [A3P]	0.429
PRARKRLELKNLG [G10K]	-0.491
PRARKRLELLNLG [G10L]	1.04
PRARKRLEQGNLG [L9Q]	0.403
